Experimental data collected from several papers.
Values joined by “and” are separate records of one study, mostly repeats; a detail may differ.
MGLL: Monoglyceride lipase (MGLL, Homo sapiens, UniProt Q99685)
Chain of UniProt Q99685 (whole entry, looked up): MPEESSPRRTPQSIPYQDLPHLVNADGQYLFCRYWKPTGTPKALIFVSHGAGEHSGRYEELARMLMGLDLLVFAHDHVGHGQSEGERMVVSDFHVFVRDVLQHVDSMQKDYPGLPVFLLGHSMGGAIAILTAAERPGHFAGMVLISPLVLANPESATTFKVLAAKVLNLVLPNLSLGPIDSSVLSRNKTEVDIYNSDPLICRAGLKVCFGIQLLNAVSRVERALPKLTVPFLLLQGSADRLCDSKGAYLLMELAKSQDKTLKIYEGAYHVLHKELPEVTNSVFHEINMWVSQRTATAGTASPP
APC: Adenomatous polyposis coli protein (APC, Homo sapiens, UniProt P25054)
Chain of UniProt P04062 (whole entry, unmodified, looked up): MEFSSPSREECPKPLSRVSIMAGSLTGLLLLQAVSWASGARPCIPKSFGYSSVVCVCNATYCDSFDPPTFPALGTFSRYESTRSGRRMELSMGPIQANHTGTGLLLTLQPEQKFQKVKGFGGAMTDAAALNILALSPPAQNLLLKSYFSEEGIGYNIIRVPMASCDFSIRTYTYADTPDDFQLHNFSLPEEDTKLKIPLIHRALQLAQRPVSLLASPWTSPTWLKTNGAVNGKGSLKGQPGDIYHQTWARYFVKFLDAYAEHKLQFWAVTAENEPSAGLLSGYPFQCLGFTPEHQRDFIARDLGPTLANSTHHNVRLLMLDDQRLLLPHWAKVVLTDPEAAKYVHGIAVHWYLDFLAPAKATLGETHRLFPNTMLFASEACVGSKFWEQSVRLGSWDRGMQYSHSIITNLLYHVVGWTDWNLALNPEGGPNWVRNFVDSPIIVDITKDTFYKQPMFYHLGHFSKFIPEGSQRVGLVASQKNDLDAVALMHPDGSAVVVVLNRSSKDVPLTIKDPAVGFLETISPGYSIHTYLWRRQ
Chain of UniProt P33261 (whole entry, looked up): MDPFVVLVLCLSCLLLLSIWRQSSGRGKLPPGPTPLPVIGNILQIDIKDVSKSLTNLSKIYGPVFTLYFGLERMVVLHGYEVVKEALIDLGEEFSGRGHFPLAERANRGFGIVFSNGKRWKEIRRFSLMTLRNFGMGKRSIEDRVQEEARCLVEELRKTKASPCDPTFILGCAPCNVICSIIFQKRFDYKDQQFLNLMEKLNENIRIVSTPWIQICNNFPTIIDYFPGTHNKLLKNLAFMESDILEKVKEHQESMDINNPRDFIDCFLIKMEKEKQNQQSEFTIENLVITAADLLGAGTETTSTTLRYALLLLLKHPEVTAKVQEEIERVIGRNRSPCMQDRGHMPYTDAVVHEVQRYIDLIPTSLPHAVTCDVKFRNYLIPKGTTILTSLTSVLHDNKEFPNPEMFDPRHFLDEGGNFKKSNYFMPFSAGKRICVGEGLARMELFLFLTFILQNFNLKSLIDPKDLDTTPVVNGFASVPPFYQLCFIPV
Chain of UniProt P25054 (whole entry, looked up): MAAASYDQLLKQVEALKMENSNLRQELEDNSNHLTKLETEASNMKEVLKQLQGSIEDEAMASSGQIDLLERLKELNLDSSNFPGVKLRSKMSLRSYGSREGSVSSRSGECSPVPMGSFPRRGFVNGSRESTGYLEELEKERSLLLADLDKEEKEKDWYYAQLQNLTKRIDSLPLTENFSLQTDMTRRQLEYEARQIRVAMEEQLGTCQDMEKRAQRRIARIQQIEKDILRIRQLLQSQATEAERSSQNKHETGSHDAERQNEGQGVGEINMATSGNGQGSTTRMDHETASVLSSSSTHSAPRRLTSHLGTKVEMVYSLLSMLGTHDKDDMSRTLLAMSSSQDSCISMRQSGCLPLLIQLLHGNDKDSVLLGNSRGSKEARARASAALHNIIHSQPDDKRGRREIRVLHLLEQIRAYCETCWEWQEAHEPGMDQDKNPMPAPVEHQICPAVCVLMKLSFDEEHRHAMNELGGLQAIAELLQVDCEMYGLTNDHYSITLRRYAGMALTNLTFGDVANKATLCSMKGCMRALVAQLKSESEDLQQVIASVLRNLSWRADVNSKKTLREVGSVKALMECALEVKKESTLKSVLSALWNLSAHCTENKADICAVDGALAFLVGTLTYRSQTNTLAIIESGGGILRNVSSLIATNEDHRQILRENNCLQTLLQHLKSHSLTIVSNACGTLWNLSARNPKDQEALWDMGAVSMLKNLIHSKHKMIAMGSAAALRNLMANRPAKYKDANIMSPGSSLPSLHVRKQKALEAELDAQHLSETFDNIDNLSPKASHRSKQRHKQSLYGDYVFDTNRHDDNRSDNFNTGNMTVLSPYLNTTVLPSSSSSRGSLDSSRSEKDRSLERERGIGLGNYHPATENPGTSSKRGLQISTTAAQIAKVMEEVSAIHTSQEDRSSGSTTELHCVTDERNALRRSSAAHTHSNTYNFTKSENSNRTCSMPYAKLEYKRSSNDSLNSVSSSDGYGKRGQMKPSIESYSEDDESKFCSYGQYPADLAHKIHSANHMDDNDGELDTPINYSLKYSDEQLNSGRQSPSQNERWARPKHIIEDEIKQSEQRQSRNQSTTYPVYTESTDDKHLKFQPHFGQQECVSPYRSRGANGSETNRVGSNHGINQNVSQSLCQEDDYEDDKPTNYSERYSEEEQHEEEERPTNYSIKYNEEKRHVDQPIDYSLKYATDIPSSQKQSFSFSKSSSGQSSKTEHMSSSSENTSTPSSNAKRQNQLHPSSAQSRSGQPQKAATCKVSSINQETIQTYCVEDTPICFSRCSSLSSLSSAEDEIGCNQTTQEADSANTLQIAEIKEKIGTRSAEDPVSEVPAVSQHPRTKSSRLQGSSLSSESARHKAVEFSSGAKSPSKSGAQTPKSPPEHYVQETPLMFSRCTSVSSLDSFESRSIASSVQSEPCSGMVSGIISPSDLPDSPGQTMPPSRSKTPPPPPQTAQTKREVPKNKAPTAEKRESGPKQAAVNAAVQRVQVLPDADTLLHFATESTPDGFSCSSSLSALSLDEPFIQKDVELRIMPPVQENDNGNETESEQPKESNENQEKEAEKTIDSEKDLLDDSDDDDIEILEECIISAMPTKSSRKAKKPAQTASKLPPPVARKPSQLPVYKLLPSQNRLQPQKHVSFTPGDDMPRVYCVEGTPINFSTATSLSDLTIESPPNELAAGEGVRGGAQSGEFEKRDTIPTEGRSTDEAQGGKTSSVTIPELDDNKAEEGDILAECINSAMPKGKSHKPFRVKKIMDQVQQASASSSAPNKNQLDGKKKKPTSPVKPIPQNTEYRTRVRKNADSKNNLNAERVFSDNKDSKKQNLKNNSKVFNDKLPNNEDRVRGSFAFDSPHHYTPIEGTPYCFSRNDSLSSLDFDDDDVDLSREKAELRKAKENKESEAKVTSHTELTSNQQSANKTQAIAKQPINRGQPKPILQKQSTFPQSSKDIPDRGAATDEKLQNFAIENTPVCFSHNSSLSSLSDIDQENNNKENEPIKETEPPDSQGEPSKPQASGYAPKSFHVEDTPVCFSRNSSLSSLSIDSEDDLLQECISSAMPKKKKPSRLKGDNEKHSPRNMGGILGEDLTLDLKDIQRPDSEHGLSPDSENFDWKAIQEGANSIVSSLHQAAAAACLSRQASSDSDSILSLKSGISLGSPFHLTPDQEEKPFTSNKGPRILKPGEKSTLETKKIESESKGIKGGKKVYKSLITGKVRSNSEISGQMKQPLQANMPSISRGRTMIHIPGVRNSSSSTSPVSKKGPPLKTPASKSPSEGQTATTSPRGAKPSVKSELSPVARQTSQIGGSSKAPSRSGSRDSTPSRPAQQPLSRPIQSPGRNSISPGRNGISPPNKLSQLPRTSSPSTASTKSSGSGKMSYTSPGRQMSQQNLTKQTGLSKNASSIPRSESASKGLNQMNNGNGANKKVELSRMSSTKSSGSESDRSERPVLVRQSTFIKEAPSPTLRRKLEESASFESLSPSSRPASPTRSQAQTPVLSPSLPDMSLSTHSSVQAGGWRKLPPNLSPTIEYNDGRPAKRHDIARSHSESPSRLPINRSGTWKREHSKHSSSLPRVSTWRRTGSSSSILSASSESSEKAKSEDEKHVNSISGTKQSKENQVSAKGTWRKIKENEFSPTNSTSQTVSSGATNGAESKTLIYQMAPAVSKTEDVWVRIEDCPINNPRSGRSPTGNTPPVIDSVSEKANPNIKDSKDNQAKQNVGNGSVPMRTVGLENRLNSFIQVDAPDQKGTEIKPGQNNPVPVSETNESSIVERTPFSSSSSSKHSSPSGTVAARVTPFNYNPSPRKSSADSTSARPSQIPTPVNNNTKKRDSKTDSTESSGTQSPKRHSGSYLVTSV
Chain of UniProt P62344 (whole entry, looked up): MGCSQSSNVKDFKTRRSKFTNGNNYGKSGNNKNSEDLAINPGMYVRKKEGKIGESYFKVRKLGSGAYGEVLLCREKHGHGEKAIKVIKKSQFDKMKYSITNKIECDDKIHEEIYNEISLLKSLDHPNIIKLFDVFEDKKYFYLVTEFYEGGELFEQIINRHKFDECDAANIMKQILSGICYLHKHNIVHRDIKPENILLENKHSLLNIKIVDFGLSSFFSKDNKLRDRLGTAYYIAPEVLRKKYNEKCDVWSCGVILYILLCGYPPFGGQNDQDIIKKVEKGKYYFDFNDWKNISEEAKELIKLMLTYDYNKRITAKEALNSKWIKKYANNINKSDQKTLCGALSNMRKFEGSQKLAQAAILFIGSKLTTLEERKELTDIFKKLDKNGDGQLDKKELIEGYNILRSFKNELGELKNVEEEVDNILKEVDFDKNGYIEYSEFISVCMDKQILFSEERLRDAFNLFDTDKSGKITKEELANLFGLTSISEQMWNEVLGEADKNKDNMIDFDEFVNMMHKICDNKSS

Molecule = COc1cc(/C=C/C(=O)O)ccc1O; target = firefly luciferase; assay = luminescence signal, luminescence counter-screen; system = cell-free, after ADP processing; conditions = up to 77 µM, together with: ADP 1.25 µM, ATP 11.25 µM; IC50 = no inhibition
Molecule = 8-prenylnaringenin; target = MGLL; assay = enzyme activity, inhibitor; conditions = 15 min preincubation; IC50 = 9.5 µM
Molecule = OC1(c2ccc(Cl)c(C(F)(F)F)c2)CCN(CCCC(c2ccc(F)cc2)c2ccc(F)cc2)CC1; target = CACNA1I (Homo sapiens, UniProt Q9P0X4); assay = inhibitor, FLIPR calcium; system = HEK293 with GCaMP6s-CAAX, Kir2.3; conditions = together with: KCl at EC90; IC50 = 0.097 µM
Molecule = CC(C)C[C@H](NC(=O)[C@H](Cc1ccc2ccccc2c1)NC(=O)[C@H](CCC(=O)O)NC(=O)c1cccc(C=O)c1)C(=O)NC1CC1c1ccccc1 (stereo partly shown); target = APC; assay = ligand displacement, FP; IC50 = 54.9 µM
Molecule = C=C(C)CCOP(=O)(O)OP(=O)(O)OP(=O)(O)OC[C@H]1O[C@@H](n2cnc3c(N)ncnc32)[C@H](O)[C@@H]1O; target = ULK3 (Homo sapiens, UniProt Q6PHR2); assay = enzyme activity, inhibitor, HotSpot kinase; conditions = together with: ATP 1 µM; IC50 = 3.4 µM
Molecule = COc1cc(CNC(=O)CCCC/C=C/C(C)C)ccc1O; target = CYP2C19 (Homo sapiens, UniProt P33261); assay = enzyme activity, inhibitor; system = human, liver microsomes; conditions = pH 7.4; IC50 = 12 µM and 11 µM
Molecule = O=C(COc1ccc(Br)cc1Br)Nc1cc(Cl)ccc1C(=O)O; target = TRPM4 (Homo sapiens, UniProt Q8TD43); assay = ion flux, inhibitor, fluorescence; IC50 = 1.8 µM
Molecule = Cc1ncc(Br)c(C(=O)N[C@@H](CCC(=O)O)C(=O)N[C@@H](Cc2ccc3ccccc3c2)C(=O)N[C@@H](CC(C)C)C(=O)NC2CC2c2ccccc2)n1 (stereo partly shown); target = APC; assay = ligand displacement, FP; IC50 = 3.93 µM
Molecule = CC(=O)N1CCN(C(=O)C(C)(C)NC(=O)Nc2ccc(C)cc2)CC1; target = Endoplasmic reticulum aminopeptidase 1, open conformation (ERAP1, Homo sapiens, UniProt Q9NZ08); assay = enzyme activity, inhibitor, fluorogenic; conditions = partial inhibition, together with: L-AMC substrate; IC50 = 126 µM
Molecule = [N-]=[N+]=NCCCCNC(=O)[C@@H]1[C@H]2[C@H](O)[C@@H](O)[C@H](O)[C@@H](CO)[C@@H]12; target = GBA1 (Homo sapiens, UniProt P04062, R534H); assay = enzyme activity, inhibitor; conditions = pH 5.2; IC50 = 99 µM and ~100 µM
Molecule = O=C(O)/C(O)=C/C(=O)c1cn(Cc2ccc(F)cc2)c2cc(N3CCCC3)ccc2c1=O; target = Gag-Pol polyprotein, integrase (gag-pol, Human immunodeficiency virus 1, UniProt P12497); assay = 3'-processing, inhibitor, gel-based; conditions = together with: Mg2+; IC50 = 9 µM
Molecule = C[C@]12C[C@@H]3C[C@](C)(C1)C[C@@](NC(=O)Nc1ccc(CN4CCC[C@H](C(=O)NCCCCC(=O)NO)C4)cc1F)(C3)C2; target = EPHX2 (Homo sapiens, UniProt P34913); assay = enzyme activity, inhibitor, fluorescence; IC50 = 0.0026 µM
Molecule = COc1cc(/C=C/C(=O)CC(=O)/C=C/c2ccc(O)c(OC)c2)ccc1O; target = Thyroid peroxidase (Tpo, Rattus norvegicus, UniProt P14650); assay = tyrosine iodination, LC-MS/MS; system = rat thyroid microsomes; conditions = together with: KI 300 µM, H2O2 40 µM; IC50 = 2.31 µM
Molecule = CCCS(=O)(=O)Nc1cc(-c2cc(-c3ccc(N4CCNCC4)cc3)cnc2N)cc(OCC)c1OC; target = RIPK2 (Homo sapiens, UniProt O43353); assay = kinase activity, inhibitor, ADP-Glo; conditions = tested up to 10 µM; IC50 = > 10 µM
Molecule = Nc1ncnc2nc[nH]c12; target = Nucleoside transporter 1 (Plasmodium vivax, UniProt A5K8B0); assay = adenosine uptake, inhibitor; system = yeast expressing Nucleoside transporter 1; conditions = 15 min, together with: [3H]adenosine 50 nM; IC50 = 278 µM
Molecule = COc1ccccc1-c1cn(CC2CC2)c2ncnc(N)c12; target = CDPK1 (Plasmodium falciparum, UniProt P62344); assay = enzyme activity, inhibitor; IC50 = > 2 µM
Molecule = Cc1nn(C)c2nc(=O)n(C)c(=O)c-2[n+]1[O-]; target = P4HB (Homo sapiens, UniProt P07237); assay = enzyme activity, inhibitor, absorbance; IC50 = 6.55 µM
Molecule = CC1(C)c2cc(CC(=O)c3ccc(O)cc3O)c(O)cc2OC1CO (stereo not shown); target = RELA (Homo sapiens, UniProt Q04206); assay = NF-κB activity, inhibitor; IC50 = > 20 µM
Molecule = Cc1ccc2c(ccn2CC2CCN(C(=O)OC(C(F)(F)F)C(F)(F)F)CC2)c1; target = MGLL; assay = enzyme activity, inhibitor; IC50 = 0.9 µM
Molecule = O=C(O)c1cc2cc(-c3ccccc3)ccc2c(I)c1O; target = Glutamate NMDA receptor; Grin1/Grin2c (Rattus norvegicus, UniProt P35439+Q00961); assay = ion current, two-electrode voltage clamp; conditions = oocytes; IC50 = 4.95 µM
Molecule = COc1ccc2c(CC(=O)NCCCC[C@H](N)C(=O)N[C@@H](CCC(=O)O)C(=O)N[C@@H](Cc3ccc(CS(=O)(=O)O)cc3)C(=O)N[C@@H](CCC(=O)O)C(=O)N[C@@H](Cc3ccc(CS(=O)(=O)O)cc3)C(=O)N[C@@H](CC(C)C)C(=O)N[C@@H](CC(=O)O)C(=O)N[C@@H](Cc3ccc(CS(=O)(=O)O)cc3)C(=O)N[C@@H](CC(=O)O)C(=O)N[C@@H](Cc3ccccc3)C(=O)N[C@@H](CC(C)C)C(=O)N3CCC[C@H]3C(=O)N[C@@H](CCC(=O)O)C(=O)N[C@H](C(=O)N[C@@H](CCC(=O)O)C(=O)N3CCC[C@H]3C(=O)N[C@@H](CC(C)C)C(=O)O)[C@@H](C)O[C@H]3O[C@H](CO[C@@H]4O[C@H](CO)[C@@H](O[C@@H]5O[C@H](CO)[C@H](O)[C@H](O[C@]6(C(=O)O)C[C@H](O)[C@@H](NC(C)=O)[C@H]([C@H](O)[C@H](O)CO)O6)[C@H]5O)[C@H](O[C@@H]5O[C@@H](C)[C@@H](O)[C@@H](O)[C@@H]5O)[C@H]4NC(C)=O)[C@H](O)[C@H](O[C@@H]4O[C@H](CO)[C@H](O)[C@H](O)[C@H]4O)[C@H]3NC(C)=O)cc(=O)oc2c1; target = P-selectin (SELP, Homo sapiens, UniProt P16109); assay = chimera binding to monocytes, inhibitor, flow cytometry; system = human monocytes; conditions = together with: SELP Fc chimera 2 µg/mL; IC50 = ~20 µM
Molecule = O=c1c2ccccc2nc2sc(Nc3ccc4c(c3)CCC4)nn12; target = TDP1 (Homo sapiens, UniProt Q9NUW8); assay = enzyme activity, inhibitor; conditions = pH 7.4; IC50 = 3.2 µM
